Experimental data gathered from unrelated publications.
± marks the error that the study gave.

SMILES	test	test system	setting	Cmax
CCCC1O[C@@H]2C[C@H]3[C@@H]4CCC5=CC(=O)C=C[C@]5(C)[C@H]4[C@@H](O)C[C@]3(C)[C@]2(C(=O)CO)O1 (stereo partly drawn)	–	CD1 mice, plasma	subcutaneous, 0.2 mg/kg	73 nM
OCCc1ccc(O)cc1	–	obese male C57BL/6J mice, plasma	oral, 200 mg/kg, high-fat diet 8 weeks	22300 ± 7600 nM
Cc1cc(Nc2cc3ncccc3c(N[C@@H]3C[C@H]4CC[C@@H](C3)N4CCC#N)n2)n[nH]1	–	male BALB/c mice, plasma	oral, 10 mg/kg	3 ± 2 nM
Cn1cnc2c(F)c(Nc3ccc(Br)cc3Cl)c(C(=O)NOCCO)cc21	–	nude mice with A-375 tumours, plasma	oral, 10 mg/kg once daily, 7 days, steady state	2980 ng/mL
COc1ccc2c(c1OCCCCS(=O)(=O)O)C(=O)O[C@@H]2[C@H]1c2c(cc3c(c2OC)OCO3)CCN1C	–	CD-1 mice, male, plasma	oral gavage, 50 mg/kg	2970 ± 60.1 ng/mL
CC(=O)C=Cc1ccc(O)c(O)c1	–	male C57BL/6J mice low-fat diet, plasma	oral, 200 mg/kg, after enzymatic deconjugation	480 ± 60 nM
CC[C@H](C)[C@@H]1NC(=O)[C@H](Cc2ccc(O)cc2)NC(=O)[C@@H](N)CSSC[C@@H](C(=O)N2CCC[C@H]2C(=O)N[C@@H](CC(C)C)C(=O)NCC(N)=O)NC(=O)[C@H](CC(N)=O)NC(=O)[C@H](CCC(N)=O)NC1=O	microdialysis, radioimmunoassay	knock-out male mice lacking compound, hippocampus extracellular fluid	intraperitoneal, 12 µg total	1.94 ± 0.85 pg/sample
CC(=O)CCc1ccc(O)cc1	–	normal-weight male C57BL/6J mice, low-fat diet, plasma	oral, 200 mg/kg, diet for 8 weeks	236000 ± 20000 nM
OC[C@H]1O[C@@H](OCCc2ccc(O)cc2)[C@H](O)[C@@H](O)[C@@H]1O	–	Balb/c tumour-bearing mice, plasma	oral, 109.2 mg/kg SNZ	292 ng/mL
CO[C@H]1C[C@@H]2CC[C@@H](C)[C@@](O)(O2)C(=O)C(=O)N2CCCC[C@H]2C(=O)O[C@H]([C@H](C)C[C@@H]2CC[C@@H](O)[C@H](OC)C2)CC(=O)[C@H](C)/C=C(\C)[C@@H](O)[C@@H](OC)C(=O)[C@H](C)C[C@H](C)/C=C/C=C/C=C/1C	–	NOD/SCID mice, male, blood or plasma	intraperitoneal, 0.5 mg/kg every 48 h	983 ± 98 ng/mL
OCCc1ccc(O)c(O)c1	–	obese male C57BL/6J mice, plasma	oral, 200 mg/kg, high-fat diet 8 weeks	147 ± 31 nM
COc1cc(/C=C/C(=O)CC(=O)/C=C/c2ccc(O)c(OC)c2)ccc1O	–	C57BL/6 mice, female, plasma	intramuscular, 40 µL of 6 mM	590 nM
Nc1cc(-c2ccccc2)ccc1Cn1cncc1CNc1ccc(Cl)c(-c2ccccc2)c1	–	female BALB/c mice, plasma	oral, 50 mg/kg single dose	2800 ng/mL
Cc1cc(Oc2nccc3occc23)ccc1-c1c(C)c(=O)[nH]c(=O)n1C	–	Swiss albino male mice, plasma	intraperitoneal, 50 mg/kg	~100000 nM
CC(O)CCc1ccc(O)cc1 (stereo not drawn)	–	male C57BL/6J mice, low-fat diet, plasma	oral, 200 mg/kg of RK, after enzymatic deconjugation	103000 ± 3260 nM
O=C(O[C@@H]1Cc2c(O)cc(O)cc2O[C@@H]1c1cc(O)c(O)c(O)c1)c1cc(O)c(O)c(O)c1	–	male CB17 SCID mice, plasma	intravenous, 100 mg/kg, earliest sampling 5 min	240000 nM
O=c1c(O)c(-c2ccc(O)cc2)oc2cc(OS(=O)(=O)O)cc(O)c12	–	FVB mice, male, Mrp2^−/−, plasma	oral, 10 mg/kg of kaempferol	616 ± 59 nM
COc1ccc(CCC(C)=O)cc1	–	male C57BL/6J mice low-fat diet, plasma	oral, 200 mg/kg, after enzymatic deconjugation	79 ± 12 nM

Repeated from above:
SMILES	test	test system	setting	Cmax
OC[C@H]1O[C@@H](OCCc2ccc(O)cc2)[C@H](O)[C@@H](O)[C@@H]1O	–	Balb/c tumour-bearing mice, plasma	oral, 109.2 mg/kg SNZ	292 ng/mL
